Measured values gathered from unrelated publications.
Compare with care: the assays were run in different laboratories. ± gives the spread as reported.

O=c1c(OCc2ccccc2)c(-c2ccc(Cl)cc2)oc2ccccc12
blood glucose (diabetic rat; 7.5 mg/kg, day 7, p-nitrophenyl β-glucoside induced): 340 ± 4.25 mg/dL

Cc1nc(C)c(C=[N+]([O-])C(C)(C)C)nc1C
protein level (western blot, item: CDK5; mouse MPTP model; 10 mg/kg; decrease): 83.8%

CCN(CC)CCn1nc(C23CC4CC(CC(C4)C2)C3)n(C)c1=S
inhibition in vivo (paw oedema; rat; intraperitoneal, 20 mg/kg): 17.3%

Cc1ccc(-c2nc3cc(C)c(C)cc3[nH]2)o1
IC50 (ABTS scavenging, absorbance): 1.55 µM

CCOC(=O)c1nc2cc(Cl)c(Cl)cc2nc1N1CCN(C(=O)Nc2ccc(N3CCNCC3)cc2)CC1
colon histopathology damage (H&E staining; mouse, DSS-induced colitis, colon; intraperitoneal, 10 or 5 mg/kg/day): decreased

O=c1c(OCc2ccccc2)c(-c2ccc([N+](=O)[O-])cc2)oc2ccccc12
blood glucose (diabetic rat; 5 mg/kg, day 28, p-nitrophenyl β-glucoside induced): 165 ± 4.88 mg/dL

COc1cc(CN2CCN(c3ccccc3[N+](=O)[O-])CC2)c2cc3[n+](cc2c1O)CCc1cc2c(cc1-3)OCO2
IC50 (ABTS scavenging, absorbance; 10 min): 8.18 µg/mL

COc1ccc(-c2oc3ccccc3c(=O)c2OCc2ccccc2)cc1
blood glucose (diabetic rat; 5 mg/kg, day 14, p-nitrophenyl β-glucoside induced): 195 ± 4.97 mg/dL

CC(=O)[O-].O.O.O.O.[Mn+2].[O-]c1ccc(Br)cc1C=NCCN1CCOCC1
inhibition (hydroxyl radical scavenging; 240 µM): 52.2%

CC[C@H]1[C@@H](O)[C@@H]2[C@H](CC[C@]3(C)[C@@H]([C@H](C)CCOS(=O)(=O)[O-])CC[C@@H]23)[C@@]2(C)CC[C@@H](O)C[C@@H]12.[Na+]
whole-body lean mass (EchoMRI; ob/ob NASH mouse model; oral, 10 mg/kg once daily, before treatment, baseline of 8 week study): 14.4 ± 0.4 g

O=C(NCc1cc(F)cc(F)c1)[C@@]1(O)CCN(c2ccc3[nH]ccc3c2)C1=O
T/C (CAKI-1 xenograft, mouse; oral, 50 mg/kg twice daily): 16%

CCc1nnc(NS(=O)(=O)c2ccc(NC(=S)NC(=O)/C=C/c3ccc(F)cc3)cc2)s1
reduction of CD31-positive vascular area (athymic nude mice, SK-N-AS xenograft, tumour; i.p., 10 mg/kg daily, 18 days): 63%

Cc1cc(Nc2cc3ncccc3c(N[C@@H]3C[C@H]4CC[C@@H](C3)N4CCC#N)n2)n[nH]1
clinical response (moderate-severe ulcerative colitis patients; 20 mg, day 28; baseline: patients): 20%

CCCCCCOC(=O)Cc1c(C)n(C(=O)c2ccc(Cl)cc2)c2ccc(OC)cc12
latency of nociceptive response (hot plate test; BALB/c mice; 75 mg/kg, 30 min): 14.4 ± 1.29 s

COc1c2c(cc3oc(COC4OC(CO)C(O)C(O)C4O)cc(=O)c13)OC(C(C)(C)O)C2 (stereo not shown)
hot plate latency (analgesia; mouse; oral, 4 mg/kg, 0.5 h): 11.7 ± 1.31 s

S=c1n(CN2CCN(c3ccccn3)CC2)nc(C23CC4CC(CC(C4)C2)C3)n1-c1ccccc1
inhibition in vivo (paw oedema; rat; intraperitoneal, 40 mg/kg): 38.9%

CSCC[C@@H]1NC(=O)[C@H](CCCCN)NC(=O)[C@H]([C@@H](C)O)NC(=O)[C@H](CCCCN)NC(=O)[C@H](CC(C)C)NC(=O)[C@H](CCCCN)NC(=O)[C@H](CCCNC(=N)N)NC(=O)[C@@H]2CSSC[C@@H]3NC(=O)[C@@H]4CCCN4C(=O)[C@H](C(C)C)NC(=O)[C@H](CCC(N)=O)NC(=O)[C@H](CCC(N)=O)NC(=O)CNC(=O)[C@H](CC(C)C)NC(=O)[C@@H]4CSSC[C@H](NC(=O)[C@H]([C@@H](C)O)NC(=O)[C@H](C)NC(=O)[C@H](CSSC[C@@H](C(=O)N[C@@H](CO)C(=O)N[C@@H](CCCNC(=N)N)C(=O)N[C@H](C(N)=O)[C@@H](C)O)NC(=O)[C@@H]5CCCN5C(=O)[C@H](CC(N)=O)NC1=O)NC(=O)[C@@H]1CCCN1C(=O)[C@H](CC(=O)O)NC(=O)[C@H](CSSC[C@H](NC(=O)[C@H](CCCNC(=N)N)NC(=O)[C@H](CCCNC(=N)N)NC(=O)[C@H](CO)NC(=O)[C@@H](N)CO)C(=O)N[C@@H](C(C)C)C(=O)N[C@@H](CCCNC(=N)N)C(=O)N[C@@H](CC(C)C)C(=O)N[C@@H](Cc1c[nH]cn1)C(=O)N[C@@H](CCC(=O)O)C(=O)N[C@@H](CO)C(=O)N4)NC3=O)C(=O)N[C@@H](Cc1ccc(O)cc1)C(=O)N[C@H]1CSSC[C@H](NC(=O)[C@H](Cc3ccccc3)NC(=O)[C@H](C)NC(=O)[C@H](CC(N)=O)NC(=O)[C@H](Cc3ccccc3)NC(=O)[C@H](Cc3ccccc3)NC(=O)[C@H](CCCNC(=N)N)NC1=O)C(=O)N[C@@H](Cc1ccc(O)cc1)C(=O)N2
food intake increase (male Long-Evans rats; intracerebroventricular, 1.0 nmol, 24 h; baseline: wild-type AgRP): ~50%

C=C(c1cc(F)c(C(=O)O)c(F)c1)c1cc2c(cc1C)C(C)(C)CCC2(C)C
log2 fold change (RNA sequencing, item: Lyve1; rat, brain; dose not given, 24 h; baseline: vehicle): 0.79

O=c1cc(-c2ccc(O)cc2)oc2c1c(O)cc1oc3cc(O)c(O)cc3c12
EC50 (DPPH scavenging, absorbance): > 20000 µM

CCCOC(=O)Cc1c(C)n(C(=O)c2ccc(Cl)cc2)c2ccc(OC)cc12
latency of nociceptive response (hot plate test; BALB/c mice; 50 mg/kg, 90 min): 14.8 ± 0.76 s

COC(=O)C=CCCC(NC(=O)c1ccncc1C(=O)O)C(=O)NC(C(=O)N1CC(=O)CC1C(=O)NC(C(=O)NC(C(N)=O)C1CCCCC1)C1CCCCC1)C(C)(C)C (stereo not shown)
thrombus weight (New Zealand White rabbit; dose not given, 135 min, venous stasis): 29 ± 6 mg

O=c1c(OCc2ccccc2)c(-c2cccc([N+](=O)[O-])c2)oc2ccccc12
blood glucose (diabetic rat; 7.5 mg/kg, day 7, p-nitrophenyl β-glucoside induced): 336 ± 4.48 mg/dL

COc1cc2c(cc1OC)-c1cc3ccc(OC)c(OC)c3c[n+]1CC2
catalase activity (rat, STZ-induced diabetic, liver; oral, 12 mg/kg, day 28): 28.9 ± 1.44 U/mg protein

NS(=O)(=O)NCC(F)(F)c1ccccc1F
ED50 (MES seizures; mouse; intraperitoneal): 50 mg/kg

CN(C)c1ccc(-c2oc3ccccc3c(=O)c2OCc2ccccc2)cc1
blood glucose (diabetic rat; 7.5 mg/kg, day 14, p-nitrophenyl β-glucoside induced): 210 ± 4.56 mg/dL

COc1ccc(C2CC(c3ccc(C)cc3)=Nc3ccccc3S2)cc1OC (stereo not shown)
triglycerides (Wistar rat, STZ-induced diabetes, serum; 10 mg/kg, 28 days): 140 mg/dL

CCc1nc(-c2ccc(-c3ccc(CCC(N)(CO)CO)cc3)cc2)co1
CD3+ T cells (flow cytometry; BALB/c mouse, imiquimod psoriasis model, blood and spleen; dose not given; baseline: imiquimod model group): decreased

CC[C@@H](C)N([11CH3])C(=O)c1nc(-c2ccc(Cl)cc2)c2ccccc2n1
TSPO specific binding (PET from VT; rhesus monkey, cerebellum; dose not given): 87%

Cc1ccc(-c2oc3ccccc3c(=O)c2OCc2ccccc2)cc1
blood glucose (diabetic rat; 7.5 mg/kg, day 1, p-nitrophenyl β-glucoside induced): 401 ± 5.12 mg/dL

C[C@H](NC(=O)COC(=O)[C@H](C)NC(=O)CO)C(=O)O
depolymerization rate constant (water; pH 7, 37 °C): 5.86 h⁻¹

O=C(Nc1nc2cc(C(F)(F)F)cc(NC3CC3)n2n1)c1cccnc1
chemokine mRNA level (item: MCP-1, RANTES, MIP-1α; ASK1 knockout mouse, MOG-induced EAE, spinal cord; 30 mg/kg, day 20 post-immunization; baseline: vehicle): no effect

C[C@@H](O)[C@@H]1NC(=O)[C@H](CCCCN)NC(=O)[C@@H](Cc2ccc(NC(N)=O)cc2)NC(=O)[C@H](Cc2ccc(NC(=O)[C@@H]3CC(=O)NC(=O)N3)cc2)NC(=O)[C@H](NC(=O)[C@H](Cc2ccc(Cl)cc2)NC(=O)CN2CCN(CC(=O)O)CCN(CC(=O)O)CCN(CC(=O)O)CC2)CSSC[C@@H](C(=O)N[C@H](Cc2ccc(O)cc2)C(N)=O)NC1=O [gallium-68 labelled]
SUVpeak (PET/CT; human neuroendocrine tumour patients, bone lesions; 60 min): 5 ± 2

CCOP(=O)(CC(=O)Nc1ccc(S(=O)(=O)N(CC(N)=O)c2ccc(N(CC(N)=O)S(=O)(=O)c3ccc(OC)cc3)c3ccccc23)cc1)OCC
total distance (open field test; APP/PS1 mice; intragastric, 40 mg/kg once daily, 60 days, 5 min test, lentivirus intracerebroventricular): no effect

CCCc1nc2cc(C(=O)N3CCC4(CC3)CC(=O)c3cc5c(cc3O4)OC(C)(C)CC5)cc(C)c2[nH]1
α-SMA level (item: α-SMA mRNA and protein; C57BL/6J male mouse, HFD-induced NASH, liver; intragastric, dose not given, daily; baseline: vehicle): decreased

COc1ccc(C2CC(c3ccc(C)cc3)=Nc3ccccc3S2)cc1 (stereo not shown)
alkaline phosphatase (Wistar rat, STZ-induced diabetes, serum; 10 mg/kg, 28 days): 207 IU/L

O=C1/C(=C/c2ccccc2)Oc2c1c(O)cc(O)c2-c1ccc(O)c(O)c1
EC50 (DPPH scavenging, absorbance): 80 µM

CCOc1ccc(C[C@@H]2NC(=O)[C@@H](N)CSSC[C@@H](C(=O)N3CCC[C@H]3C(=O)N[C@@H](CC(C)C)C(=O)NCC(N)=O)NC(=O)[C@H](CC(N)=O)NC(=O)[C@H](CCC(N)=O)NC(=O)[C@H]([C@@H](C)CC)NC2=O)cc1
pA2 (antagonist; Bufo marinus urinary bladder; added: deamino-oxytocin): 6.81

A few entries again:
CCCCCCOC(=O)Cc1c(C)n(C(=O)c2ccc(Cl)cc2)c2ccc(OC)cc12
latency of nociceptive response (hot plate test; BALB/c mice; 75 mg/kg, 30 min): 14.4 ± 1.29 s

C[C@H](NC(=O)COC(=O)[C@H](C)NC(=O)CO)C(=O)O
depolymerization rate constant (water; pH 7, 37 °C): 5.86 h⁻¹

O=C(Nc1nc2cc(C(F)(F)F)cc(NC3CC3)n2n1)c1cccnc1
chemokine mRNA level (item: MCP-1, RANTES, MIP-1α; ASK1 knockout mouse, MOG-induced EAE, spinal cord; 30 mg/kg, day 20 post-immunization; baseline: vehicle): no effect

COc1ccc(C2CC(c3ccc(C)cc3)=Nc3ccccc3S2)cc1 (stereo not shown)
alkaline phosphatase (Wistar rat, STZ-induced diabetes, serum; 10 mg/kg, 28 days): 207 IU/L
